Assay results of several laboratories.
Parts stem from different laboratories: compare values within a part only. “And” joins repeats or separate records; there may be more than shown.
Chain of UniProt O95382 (whole entry, looked up): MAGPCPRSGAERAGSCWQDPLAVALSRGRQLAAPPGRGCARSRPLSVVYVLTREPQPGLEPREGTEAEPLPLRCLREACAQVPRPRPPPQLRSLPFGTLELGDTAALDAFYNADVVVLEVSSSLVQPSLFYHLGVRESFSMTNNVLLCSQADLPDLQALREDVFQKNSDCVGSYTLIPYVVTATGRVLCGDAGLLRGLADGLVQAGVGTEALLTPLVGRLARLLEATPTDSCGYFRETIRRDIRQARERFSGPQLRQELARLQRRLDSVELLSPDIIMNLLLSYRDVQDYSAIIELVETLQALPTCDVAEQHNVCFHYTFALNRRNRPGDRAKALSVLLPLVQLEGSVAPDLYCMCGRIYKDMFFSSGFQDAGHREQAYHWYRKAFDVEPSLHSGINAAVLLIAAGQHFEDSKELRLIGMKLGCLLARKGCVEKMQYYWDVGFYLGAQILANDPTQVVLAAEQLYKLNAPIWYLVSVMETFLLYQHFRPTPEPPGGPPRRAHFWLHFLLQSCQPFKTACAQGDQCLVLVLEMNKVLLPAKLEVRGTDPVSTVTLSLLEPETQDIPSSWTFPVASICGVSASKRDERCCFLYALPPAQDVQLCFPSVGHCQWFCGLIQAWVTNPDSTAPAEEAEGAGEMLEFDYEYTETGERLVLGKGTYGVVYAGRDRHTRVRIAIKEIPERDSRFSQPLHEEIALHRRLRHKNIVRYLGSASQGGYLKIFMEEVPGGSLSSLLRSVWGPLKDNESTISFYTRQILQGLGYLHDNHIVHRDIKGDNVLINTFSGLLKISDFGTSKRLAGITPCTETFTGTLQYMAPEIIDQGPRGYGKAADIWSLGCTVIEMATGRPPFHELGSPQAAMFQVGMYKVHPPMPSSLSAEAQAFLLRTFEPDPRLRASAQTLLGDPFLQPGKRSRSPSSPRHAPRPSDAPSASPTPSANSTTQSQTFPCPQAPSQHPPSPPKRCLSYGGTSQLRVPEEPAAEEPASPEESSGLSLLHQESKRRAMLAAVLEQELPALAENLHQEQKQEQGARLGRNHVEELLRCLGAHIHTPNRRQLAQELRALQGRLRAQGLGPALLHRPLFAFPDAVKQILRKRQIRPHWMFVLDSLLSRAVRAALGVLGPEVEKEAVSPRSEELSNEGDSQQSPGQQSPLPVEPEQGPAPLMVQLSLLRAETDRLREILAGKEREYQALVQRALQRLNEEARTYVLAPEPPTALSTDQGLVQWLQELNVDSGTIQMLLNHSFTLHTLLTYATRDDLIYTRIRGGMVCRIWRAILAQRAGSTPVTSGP
Chain of UniProt P42336 (whole entry, unmodified, looked up): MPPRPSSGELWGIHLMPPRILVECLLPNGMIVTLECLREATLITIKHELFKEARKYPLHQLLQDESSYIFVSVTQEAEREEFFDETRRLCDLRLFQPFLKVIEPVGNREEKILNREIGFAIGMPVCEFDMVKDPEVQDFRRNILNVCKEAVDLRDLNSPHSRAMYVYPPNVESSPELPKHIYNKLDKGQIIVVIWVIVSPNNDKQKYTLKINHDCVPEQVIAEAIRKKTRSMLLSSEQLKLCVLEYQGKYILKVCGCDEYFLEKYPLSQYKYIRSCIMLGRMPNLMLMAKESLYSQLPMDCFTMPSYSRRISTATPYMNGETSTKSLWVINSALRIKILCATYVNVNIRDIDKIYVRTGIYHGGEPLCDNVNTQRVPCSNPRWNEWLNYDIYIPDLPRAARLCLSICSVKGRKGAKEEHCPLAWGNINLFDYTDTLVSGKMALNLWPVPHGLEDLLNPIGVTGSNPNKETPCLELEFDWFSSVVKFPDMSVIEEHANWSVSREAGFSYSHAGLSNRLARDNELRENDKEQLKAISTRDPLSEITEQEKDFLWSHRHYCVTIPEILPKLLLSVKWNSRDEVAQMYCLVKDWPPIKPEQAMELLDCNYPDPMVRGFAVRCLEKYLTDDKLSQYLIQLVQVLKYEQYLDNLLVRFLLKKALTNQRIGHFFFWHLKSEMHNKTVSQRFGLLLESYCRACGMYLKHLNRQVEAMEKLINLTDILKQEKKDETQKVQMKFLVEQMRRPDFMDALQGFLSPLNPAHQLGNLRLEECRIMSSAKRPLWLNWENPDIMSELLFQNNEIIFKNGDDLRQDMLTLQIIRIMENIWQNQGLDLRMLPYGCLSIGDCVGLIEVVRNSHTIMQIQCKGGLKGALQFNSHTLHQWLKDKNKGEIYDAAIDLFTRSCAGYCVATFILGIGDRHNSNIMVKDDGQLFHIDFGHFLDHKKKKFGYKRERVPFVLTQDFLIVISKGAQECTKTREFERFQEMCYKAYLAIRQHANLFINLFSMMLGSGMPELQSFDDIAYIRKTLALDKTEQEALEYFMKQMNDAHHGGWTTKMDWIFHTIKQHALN
Chain of UniProt O95747 (whole entry, looked up): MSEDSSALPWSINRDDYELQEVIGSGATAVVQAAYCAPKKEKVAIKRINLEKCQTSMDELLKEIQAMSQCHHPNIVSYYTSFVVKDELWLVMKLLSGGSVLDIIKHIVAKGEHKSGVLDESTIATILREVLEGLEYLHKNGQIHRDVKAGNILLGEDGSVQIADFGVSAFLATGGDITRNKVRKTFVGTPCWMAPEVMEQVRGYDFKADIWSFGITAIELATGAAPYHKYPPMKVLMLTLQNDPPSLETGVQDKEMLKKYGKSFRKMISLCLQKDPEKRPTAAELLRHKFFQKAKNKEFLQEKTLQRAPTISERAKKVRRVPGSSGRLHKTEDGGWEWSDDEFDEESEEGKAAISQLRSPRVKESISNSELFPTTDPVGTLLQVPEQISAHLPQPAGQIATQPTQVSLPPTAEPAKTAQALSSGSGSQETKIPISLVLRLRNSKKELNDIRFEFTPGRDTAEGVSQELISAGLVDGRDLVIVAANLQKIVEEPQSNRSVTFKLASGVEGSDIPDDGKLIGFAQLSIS
Chain of UniProt Q00537 (whole entry, looked up): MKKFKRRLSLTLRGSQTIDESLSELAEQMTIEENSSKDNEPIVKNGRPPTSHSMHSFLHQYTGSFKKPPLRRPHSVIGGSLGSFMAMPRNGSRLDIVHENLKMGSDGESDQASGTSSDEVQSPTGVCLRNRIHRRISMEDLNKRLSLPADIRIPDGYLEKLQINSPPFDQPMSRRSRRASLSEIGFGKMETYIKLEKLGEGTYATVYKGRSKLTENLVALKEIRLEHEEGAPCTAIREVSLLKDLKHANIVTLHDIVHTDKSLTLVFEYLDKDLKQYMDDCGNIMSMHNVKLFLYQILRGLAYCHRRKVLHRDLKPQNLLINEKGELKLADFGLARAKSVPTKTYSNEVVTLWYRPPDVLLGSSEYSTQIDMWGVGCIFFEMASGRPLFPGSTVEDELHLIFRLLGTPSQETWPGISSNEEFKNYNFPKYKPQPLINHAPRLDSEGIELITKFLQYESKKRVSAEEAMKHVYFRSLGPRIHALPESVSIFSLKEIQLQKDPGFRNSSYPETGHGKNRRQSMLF

Sample 1
Compound: C[C@@H]1CN(c2ccc(-c3cc(C(=O)NCCOCCOCCOCCOCCOCCOCCNC(=O)/C=C/c4[nH]cc(C(=O)N[C@@H](CC(N)=O)c5ccc(F)c(Cl)c5)c4-c4ccc(Cl)cc4F)ccc3F)cc2NC(=O)c2ccc(F)cc2C(F)(F)F)C[C@H](C)N1C
Effect on: thermal unfolding
Method: differential scanning fluorimetry
Tested at: 5.5 µM
Reading: higher = more unfolded
DCAF1: DDB1- and CUL4-associated factor 1 (DCAF1, Homo sapiens, UniProt Q9Y4B6)
Chain of UniProt Q9Y4B6 (whole entry, looked up): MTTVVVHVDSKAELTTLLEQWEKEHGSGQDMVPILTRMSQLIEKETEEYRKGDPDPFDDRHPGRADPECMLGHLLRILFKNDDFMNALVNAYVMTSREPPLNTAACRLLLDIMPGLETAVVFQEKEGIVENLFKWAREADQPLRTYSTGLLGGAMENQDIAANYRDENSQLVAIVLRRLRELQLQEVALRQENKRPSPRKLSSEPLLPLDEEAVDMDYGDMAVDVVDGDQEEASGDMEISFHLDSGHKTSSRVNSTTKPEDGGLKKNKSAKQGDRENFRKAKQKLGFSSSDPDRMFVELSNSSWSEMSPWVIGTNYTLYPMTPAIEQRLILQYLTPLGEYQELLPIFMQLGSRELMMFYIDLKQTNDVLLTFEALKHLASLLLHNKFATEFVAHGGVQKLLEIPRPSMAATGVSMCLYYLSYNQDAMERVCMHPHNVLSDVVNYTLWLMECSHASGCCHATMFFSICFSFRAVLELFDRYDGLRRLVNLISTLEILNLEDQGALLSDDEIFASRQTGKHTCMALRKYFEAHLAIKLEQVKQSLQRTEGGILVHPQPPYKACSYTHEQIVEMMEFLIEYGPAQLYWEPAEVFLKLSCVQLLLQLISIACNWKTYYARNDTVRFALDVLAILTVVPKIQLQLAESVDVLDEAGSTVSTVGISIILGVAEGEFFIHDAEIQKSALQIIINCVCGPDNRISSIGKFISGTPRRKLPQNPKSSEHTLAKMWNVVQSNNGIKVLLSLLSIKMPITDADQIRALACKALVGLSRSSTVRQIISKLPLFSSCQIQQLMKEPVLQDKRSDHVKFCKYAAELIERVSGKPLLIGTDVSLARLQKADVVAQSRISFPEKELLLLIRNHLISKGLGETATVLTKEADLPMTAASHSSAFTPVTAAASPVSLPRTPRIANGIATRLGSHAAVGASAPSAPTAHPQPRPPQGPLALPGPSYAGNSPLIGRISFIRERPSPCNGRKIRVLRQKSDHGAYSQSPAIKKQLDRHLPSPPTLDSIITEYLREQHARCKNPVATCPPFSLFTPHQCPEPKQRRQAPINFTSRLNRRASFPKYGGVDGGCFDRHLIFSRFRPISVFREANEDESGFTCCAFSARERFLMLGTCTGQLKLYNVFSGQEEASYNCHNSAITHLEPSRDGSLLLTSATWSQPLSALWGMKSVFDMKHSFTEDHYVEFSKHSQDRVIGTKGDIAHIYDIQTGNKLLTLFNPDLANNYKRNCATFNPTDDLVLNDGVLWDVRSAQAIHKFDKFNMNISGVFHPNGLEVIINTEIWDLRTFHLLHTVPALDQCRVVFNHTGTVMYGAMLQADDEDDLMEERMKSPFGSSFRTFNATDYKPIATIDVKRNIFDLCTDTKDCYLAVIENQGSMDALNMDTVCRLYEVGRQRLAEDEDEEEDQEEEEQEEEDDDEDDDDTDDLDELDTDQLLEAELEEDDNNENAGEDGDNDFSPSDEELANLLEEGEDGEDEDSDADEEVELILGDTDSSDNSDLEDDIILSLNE
WDR5: WD repeat-containing protein 5 (WDR5, Homo sapiens, UniProt P61964)
It gave 10000 a.u. for “SYPRO Orange fluorescence” (DCAF1; 35.4 °C).
The “SYPRO Orange fluorescence” was 9750 a.u. (DCAF1; 34.6 °C).
For DCAF1; 93.81 °C: “SYPRO Orange fluorescence” read 29500 a.u.
For DCAF1; 34.2 °C: “SYPRO Orange fluorescence” read 9590 a.u.
It gave 52700 a.u. for “SYPRO Orange fluorescence” (DCAF1; 66.01 °C).
The “SYPRO Orange fluorescence” was 23100 a.u. (DCAF1; 53.41 °C).
For DCAF1; 74.81 °C: “SYPRO Orange fluorescence” read 43900 a.u.
For DCAF1; 85.21 °C: “SYPRO Orange fluorescence” read 35700 a.u.
It gave 15100 a.u. for “SYPRO Orange fluorescence” (WDR5; 61.41 °C).
WDR5; 41.6 °C — “SYPRO Orange fluorescence”: 14300 a.u.
The “SYPRO Orange fluorescence” was 41200 a.u. (DCAF1; 78.21 °C).

Sample 2
SMILES: CC[C@@]1(c2ccccc2)C2=C(CC(C)(C)CC2=O)Nc2n[nH]cc21
Tested at: 1 µM
For TIE1 (Homo sapiens, UniProt P35590); kinase binding, KINOMEscan; baseline: DMSO control: remaining binding read 100%.
CAMK2G (Homo sapiens, UniProt Q13555); binding, competition with immobilised ligand — remaining binding: 90%.
The remaining binding was 98% (TBK1 (Homo sapiens, UniProt Q9UHD2); binding, competition with immobilised ligand).
It gave 100% for remaining binding (CDK18 (Homo sapiens, UniProt Q07002); binding, competition with immobilised ligand).
It gave 98% for remaining binding (RIPK1 (Homo sapiens, UniProt Q13546); binding, competition with immobilised ligand).
For PIM2 (Homo sapiens, UniProt Q9P1W9); binding, competition with immobilised ligand: remaining binding read 100%.
For STK39 (Homo sapiens, UniProt Q9UEW8); kinase binding, KINOMEscan; baseline: DMSO control: remaining binding read 100%.
The remaining binding was 100% (CHUK (Homo sapiens, UniProt O15111); kinase binding, KINOMEscan; baseline: DMSO control).
For KDR (Homo sapiens, UniProt P35968); kinase binding, KINOMEscan; baseline: DMSO control: remaining binding read 100%.
The remaining binding was 95% (TNIK (Homo sapiens, UniProt Q9UKE5); kinase binding, KINOMEscan; baseline: DMSO control).
The remaining binding was 100% (FLT3 ITD/D835V, human; KINOMEscan).
It gave 100% for remaining binding (OXSR1 (Homo sapiens, UniProt O95747); kinase binding, KINOMEscan; baseline: DMSO control).
For VRK2 (Homo sapiens, UniProt Q86Y07); kinase binding, KINOMEscan; baseline: DMSO control: remaining binding read 100%.
For EPHA4 (Homo sapiens, UniProt P54764); binding, competition with immobilised ligand: remaining binding read 67%.
The remaining binding was 100% (EGFR (Homo sapiens, UniProt P00533, L861Q); binding, competition with immobilised ligand).
The remaining binding was 100% (RIOK2 (Homo sapiens, UniProt Q9BVS4); binding, competition with immobilised ligand).
PIK3C2B (Homo sapiens, UniProt O00750); binding, competition with immobilised ligand — remaining binding: 100%.
For MAP3K6 (Homo sapiens, UniProt O95382); kinase binding, KINOMEscan; baseline: DMSO control: remaining binding read 100%.
For PIK3CA (Homo sapiens, UniProt P42336, E545A); kinase binding, KINOMEscan; baseline: DMSO control: remaining binding read 92%.
For MAP2K6 (Homo sapiens, UniProt P52564); binding, competition with immobilised ligand: remaining binding read 92%.
It gave 100% for remaining binding (COQ8A (Homo sapiens, UniProt Q8NI60); kinase binding, KINOMEscan; baseline: DMSO control).
For MATK (Homo sapiens, UniProt P42679); kinase binding, KINOMEscan; baseline: DMSO control: remaining binding read 100%.
For MAPK11 (Homo sapiens, UniProt Q15759); kinase binding, KINOMEscan; baseline: DMSO control: remaining binding read 100%.
For Ribosomal protein S6 kinase alpha-6, N-terminal kinase domain (RPS6KA6, Homo sapiens, UniProt Q9UK32); binding, competition with immobilised ligand: remaining binding read 100%.

Sample 3
SMILES: COc1cc(-c2nc3ccc(C(=O)NCCCN4CCN(c5cccc(C)c5C)CC4)cc3n2C2CCC2)cc(OC)c1OC
For MAP3K4 (Homo sapiens, UniProt Q9Y6R4); binding, competition with immobilised ligand; 1 µM: remaining binding read 80%.
SYK (Homo sapiens, UniProt P43405); binding, competition with immobilised ligand; 1 µM — remaining binding: 78%.
For ABL2 (Homo sapiens, UniProt P42684); binding, competition with immobilised ligand; 1 µM: remaining binding read 91%.
It gave 95% for remaining binding (ACVR2B (Homo sapiens, UniProt Q13705); KINOMEscan; 1000 nM).
It gave 91% for remaining binding (PRKCI (Homo sapiens, UniProt P41743); binding, competition with immobilised ligand; 1 µM).
CDK11B (Homo sapiens, UniProt P21127); binding, competition with immobilised ligand; 1 µM — remaining binding: 99%.
It gave 82% for remaining binding (Aurora kinase B (AURKB, Homo sapiens, UniProt Q96GD4); binding, competition with immobilised ligand; 1 µM).
It gave 100% for remaining binding (CSK (Homo sapiens, UniProt P41240); binding, competition with immobilised ligand; 1 µM).
CDPK1 (Plasmodium falciparum, UniProt P62344); binding, competition with immobilised ligand; 1 µM — remaining binding: 87%.
For TESK1 (Homo sapiens, UniProt Q15569); binding, competition with immobilised ligand; 1 µM: remaining binding read 98%.
It gave 85% for remaining binding (KIT (Homo sapiens, UniProt P10721, A829P); binding, competition with immobilised ligand; 1 µM).
CAMK2B (Homo sapiens, UniProt Q13554); binding, competition with immobilised ligand; 1 µM — remaining binding: 93%.
It gave 100% for remaining binding (BMX (Homo sapiens, UniProt P51813); binding, competition with immobilised ligand; 1 µM).
For STK32C (Homo sapiens, UniProt Q86UX6); binding, competition with immobilised ligand; 1 µM: remaining binding read 100%.
It gave 91% for remaining binding (PIK3CD (Homo sapiens, UniProt O00329); binding, competition with immobilised ligand; 1 µM).
MAP3K6 (Homo sapiens, UniProt O95382); binding, competition with immobilised ligand; 1 µM — remaining binding: 79%.
It gave 85% for remaining binding (FES (Homo sapiens, UniProt P07332); binding, competition with immobilised ligand; 1 µM).
MAP3K13 (Homo sapiens, UniProt O43283); binding, competition with immobilised ligand; 1 µM — remaining binding: 88%.
CDK17 (Homo sapiens, UniProt Q00537); binding, competition with immobilised ligand; 1 µM — remaining binding: 99%.
PIK3CA (Homo sapiens, UniProt P42336, E545K); binding, competition with immobilised ligand; 1 µM — remaining binding: 100%.

Further values, each from its own experiment
KRAS G12D GDP-bound: GTPase KRas, GDP-bound (KRAS, Homo sapiens, UniProt P01116, G12D)
`Cc1ncsc1-c1ccc(C(CO)NC(=O)C2CC(O)CN2C(=O)C(NC(=O)c2ccc(COc3c(-c4c(C)c(F)cc5[nH]ncc45)c(C4CC4)cc4c(N5CC6CC5CN6)nc(OC5CCOCC5)nc34)cc2)C(C)C)cc1` (centres unmarked) — result for “dissociation rate constant (kd)”: 0.00789 s⁻¹ and 0.00693 s⁻¹ and 0.00915 s⁻¹ (KRAS G12D GDP-bound; binder, single-cycle SPR; binary, without VCB).
With `CCN1CCN(Cc2ccc(COc3c(-c4c(C)c(F)cc5[nH]ncc45)c(C4CC4)cc4c(N5C[C@@H]6C[C@H]5CN6)nc(OC5CCOCC5)nc34)cc2)C(=O)C1` the kon was 3.58e+06 M⁻¹ s⁻¹ (KRAS G12D GDP-bound; SPR, multi-cycle; immobilized KRAS G12D; binary, geometric mean).
The Kd of `Cc1ncsc1-c1ccc(C2(NC(=O)C3CC(O)CN3C(=O)C(NC(=O)c3ccc(COc4c(-c5c(C)c(F)cc6[nH]ncc56)c(C5CC5)cc5c(N6CC7CC6CN7)nc(OC6CCOCC6)nc45)cc3)C(C)C)CC2)cc1` (centres unmarked) is reported as 692 nM and 1090 nM and 484 nM (von Hippel-Lindau disease tumor suppressor, with Elongin B/C (VHL, Homo sapiens, UniProt P40337); SPR, single-cycle; immobilized VCB complex; binary).
Under “dissociation rate constant (kd)”, `Cc1ncsc1-c1ccc(C2(NC(=O)C3CC(O)CN3C(=O)C(NC(=O)c3ccc(COc4c(-c5c(C)c(F)cc6[nH]ncc56)c(C5CC5)cc5c(N6CC7CC6CN7)nc(OC6CCOCC6)nc45)cc3)C(C)(C)C)CC2)cc1` (centres unmarked) is recorded as 0.014 s⁻¹ and 0.0179 s⁻¹ and 0.015 s⁻¹ (KRAS G12D GDP-bound; binder, single-cycle SPR; binary, without VCB).

Repeated from above (sample 2):
The remaining binding was 100% (CHUK (Homo sapiens, UniProt O15111); kinase binding, KINOMEscan; baseline: DMSO control).
For KDR (Homo sapiens, UniProt P35968); kinase binding, KINOMEscan; baseline: DMSO control: remaining binding read 100%.
The remaining binding was 95% (TNIK (Homo sapiens, UniProt Q9UKE5); kinase binding, KINOMEscan; baseline: DMSO control).
The remaining binding was 100% (FLT3 ITD/D835V, human; KINOMEscan).
It gave 100% for remaining binding (OXSR1 (Homo sapiens, UniProt O95747); kinase binding, KINOMEscan; baseline: DMSO control).
For VRK2 (Homo sapiens, UniProt Q86Y07); kinase binding, KINOMEscan; baseline: DMSO control: remaining binding read 100%.
For EPHA4 (Homo sapiens, UniProt P54764); binding, competition with immobilised ligand: remaining binding read 67%.
